# Assay results of several laboratories.
# Each line is one published result; not all experiments were run side by side. Several values in a cell are separate wells, animals, samples, runs or records.
# Target: Serine/threonine-protein kinase Nek7 (NEK7, Homo sapiens, UniProt Q8TDX7)
SMILES,test,system,conditions,scale,endpoint,value
CS(=O)(=O)Nc1cccc(-c2csc3cnc(Nc4ccc(N5CCN(CCCCCOc6cccc7c6C(=O)N(C6CCC(=O)NC6=O)C7=O)CC5)cc4)nc23)c1 (stereo not shown),"probe labelling, inhibitor, KiNativ chemoproteomics",MOLT-4,1 µM,,inhibition,-1.46%
CNC1C[S+]2CC[S+]3CC[S+](C1)[Ru-4]321([N]=C=S)[n]2c3ccc(OC)cc3c3c4c(c5cc(F)c[n+]1c5c32)C(=O)NC4=O (stereo not shown),KinomeScan,,0.1 µM,reference: untreated,remaining binding,86%
CCn1cc(C(=O)O)c(=O)c2c(N)c(F)c(NC3CCCCC3)cc21,kinase activity,,"0.1 µM, added: ATP at Km",,inhibition,9.3%
C=CC(=O)Nc1cccc(-c2cnc3[nH]cc(C(=O)NC(C)(C)C)c3n2)c1,kinase activity,,0.1 µM,,inhibition,3% and 1%
CNC(=O)C1CCN(c2cc(C)c(F)cc2NC(=O)c2ccc(-c3cc(O)ccc3C)c(C)c2)CC1,"binding, competition with immobilised ligand",,1 µM,,remaining binding,100%
Nc1ncc(-c2cc(-c3cnn(CC(F)(F)F)c3)ncc2F)nc1C(=O)NC1CNCC(F)C1 (stereo not shown),enzyme activity,,1 µM,reference: DMSO control,remaining activity,102%
COc1c(OCCCN2CCOCC2)ccc2c1N=C(NC(=O)c1cnc(N)nc1)N1CCN=C21,"kinase activity, inhibitor",,1 µM,reference: untreated control,remaining activity,112%
COc1c(Cl)cccc1Nc1c(-c2ccncc2C#C[C@@]2(C)CCCN2C(=O)/C=C/CN(C)C)[nH]c2c1C(=O)NCC2,"binding, competition with immobilised ligand",,3 µM,,remaining binding,95%
COc1cc(Nc2nccc(-c3cnn4nc(OC)ccc34)n2)cc(C(F)(F)F)c1,"binding, competition with immobilised ligand",,1 µM,,remaining binding,40%
Cc1ccc(-c2c(/C=C(\C#N)C(=O)NC(C)C)n(CCCO)c3ncnc(N)c23)cc1,"cell-free assay, competition with immobilised ligand",,1 µM,,remaining binding,94%
Nc1ncc2c(n1)-c1c([nH]c3ccc(C4=CCOCC4)cc13)CCC2,"binding, competition with immobilised ligand",,1 µM,,remaining binding,100%
Cc1cccc(O[C@H]2CCC[C@@H](C(C)CNCc3ccncc3)C2)c1 (relative stereo),"enzyme activity, inhibitor",,1 µM,,inhibition,3%
C=CC(=O)N1CCCC(n2c(=O)c3ncccc3n(Cc3ccc(Oc4ccccc4)cc3)c2=O)C1 (stereo not shown),"cell-free assay, competition with immobilised ligand",,1 µM,,remaining binding,100%
Cc1cnc2nc1Nc1cccc(c1)COC/C=C/COCc1cc(ccc1OCCN1CCOCC1)N2,binding,,0.1 µM,,remaining binding,73%
NC(=O)[C@@H](O)C[C@H]1CCc2sc3ncnc(O[C@H]4CC[C@H](N5CCOCC5)CC4)c3c21,"enzyme activity, inhibitor",,10 µM,,inhibition,4%
CCN1CCN(Cc2ccc(C(=O)Nc3ccc(C)c(NCc4cnc5[nH]ccc5c4OC)c3)cc2C(F)(F)F)CC1,"binding, competition with immobilised ligand",,1 µM,,remaining binding,94%
